Measurements pooled from the literature.
A part holds a random share of what one study measured. Values joined by “and” are separate records of one study, mostly repeats; a detail may differ.
Sequence of UniProt P07949 (whole entry, unmodified, looked up): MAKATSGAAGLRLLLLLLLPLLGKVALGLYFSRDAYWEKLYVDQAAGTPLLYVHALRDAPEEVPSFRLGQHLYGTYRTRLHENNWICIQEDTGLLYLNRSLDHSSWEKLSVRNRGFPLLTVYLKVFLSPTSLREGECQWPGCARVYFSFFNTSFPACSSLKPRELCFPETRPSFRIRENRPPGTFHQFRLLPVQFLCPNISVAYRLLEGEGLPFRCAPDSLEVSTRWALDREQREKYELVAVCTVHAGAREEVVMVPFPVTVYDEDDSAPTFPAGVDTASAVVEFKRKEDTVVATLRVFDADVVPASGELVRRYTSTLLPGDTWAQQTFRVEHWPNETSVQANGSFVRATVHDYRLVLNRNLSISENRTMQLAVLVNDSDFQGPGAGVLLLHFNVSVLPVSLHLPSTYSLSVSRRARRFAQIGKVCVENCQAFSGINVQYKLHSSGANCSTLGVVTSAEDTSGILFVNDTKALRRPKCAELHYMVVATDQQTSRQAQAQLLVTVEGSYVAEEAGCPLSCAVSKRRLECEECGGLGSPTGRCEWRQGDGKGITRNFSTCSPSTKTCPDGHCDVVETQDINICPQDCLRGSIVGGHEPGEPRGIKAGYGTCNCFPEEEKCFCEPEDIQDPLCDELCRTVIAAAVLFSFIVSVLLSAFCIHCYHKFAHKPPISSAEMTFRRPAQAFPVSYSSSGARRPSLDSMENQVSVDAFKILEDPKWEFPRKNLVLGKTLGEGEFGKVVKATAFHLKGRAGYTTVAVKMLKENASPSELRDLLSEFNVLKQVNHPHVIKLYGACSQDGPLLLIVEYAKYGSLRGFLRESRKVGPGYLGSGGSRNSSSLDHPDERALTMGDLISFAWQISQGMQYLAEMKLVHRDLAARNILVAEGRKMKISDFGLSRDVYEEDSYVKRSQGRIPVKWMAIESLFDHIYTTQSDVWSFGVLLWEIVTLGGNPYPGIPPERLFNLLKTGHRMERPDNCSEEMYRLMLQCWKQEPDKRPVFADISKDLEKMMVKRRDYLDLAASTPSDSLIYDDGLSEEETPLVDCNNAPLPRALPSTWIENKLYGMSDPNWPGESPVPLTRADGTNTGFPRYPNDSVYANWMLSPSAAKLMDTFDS
Sequence of UniProt Q86Z02 (whole entry, looked up): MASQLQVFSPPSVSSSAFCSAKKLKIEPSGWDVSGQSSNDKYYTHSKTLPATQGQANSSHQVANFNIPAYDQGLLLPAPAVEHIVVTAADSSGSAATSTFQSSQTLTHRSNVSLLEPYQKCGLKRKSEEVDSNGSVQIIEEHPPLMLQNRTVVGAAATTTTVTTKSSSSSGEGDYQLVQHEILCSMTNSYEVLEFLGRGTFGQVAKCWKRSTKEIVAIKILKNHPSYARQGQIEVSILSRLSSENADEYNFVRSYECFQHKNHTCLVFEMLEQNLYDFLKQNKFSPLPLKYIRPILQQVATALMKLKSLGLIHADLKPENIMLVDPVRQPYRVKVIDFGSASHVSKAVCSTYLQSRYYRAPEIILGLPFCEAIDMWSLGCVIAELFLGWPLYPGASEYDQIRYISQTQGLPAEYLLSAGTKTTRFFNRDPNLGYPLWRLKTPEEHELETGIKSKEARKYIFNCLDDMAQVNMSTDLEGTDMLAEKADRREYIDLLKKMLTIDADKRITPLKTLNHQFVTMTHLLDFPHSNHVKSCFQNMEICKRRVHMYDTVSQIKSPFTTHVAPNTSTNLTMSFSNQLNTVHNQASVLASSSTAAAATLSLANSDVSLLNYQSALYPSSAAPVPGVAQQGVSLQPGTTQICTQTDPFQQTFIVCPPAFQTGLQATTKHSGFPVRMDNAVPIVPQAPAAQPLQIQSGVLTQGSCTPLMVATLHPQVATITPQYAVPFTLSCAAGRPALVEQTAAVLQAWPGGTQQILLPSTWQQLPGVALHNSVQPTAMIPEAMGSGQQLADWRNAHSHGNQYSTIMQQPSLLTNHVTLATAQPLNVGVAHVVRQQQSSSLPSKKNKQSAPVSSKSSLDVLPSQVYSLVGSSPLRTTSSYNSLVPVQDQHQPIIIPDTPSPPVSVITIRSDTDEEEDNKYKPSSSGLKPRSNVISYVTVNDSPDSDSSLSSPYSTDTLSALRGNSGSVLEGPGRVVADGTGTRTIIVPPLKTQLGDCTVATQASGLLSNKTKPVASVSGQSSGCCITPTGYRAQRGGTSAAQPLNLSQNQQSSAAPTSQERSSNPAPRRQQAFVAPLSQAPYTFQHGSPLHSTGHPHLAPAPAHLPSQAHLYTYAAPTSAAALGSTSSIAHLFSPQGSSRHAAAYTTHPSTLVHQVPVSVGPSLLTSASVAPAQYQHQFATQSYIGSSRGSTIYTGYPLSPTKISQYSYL
Sequence of UniProt Q9H4B4 (whole entry, looked up): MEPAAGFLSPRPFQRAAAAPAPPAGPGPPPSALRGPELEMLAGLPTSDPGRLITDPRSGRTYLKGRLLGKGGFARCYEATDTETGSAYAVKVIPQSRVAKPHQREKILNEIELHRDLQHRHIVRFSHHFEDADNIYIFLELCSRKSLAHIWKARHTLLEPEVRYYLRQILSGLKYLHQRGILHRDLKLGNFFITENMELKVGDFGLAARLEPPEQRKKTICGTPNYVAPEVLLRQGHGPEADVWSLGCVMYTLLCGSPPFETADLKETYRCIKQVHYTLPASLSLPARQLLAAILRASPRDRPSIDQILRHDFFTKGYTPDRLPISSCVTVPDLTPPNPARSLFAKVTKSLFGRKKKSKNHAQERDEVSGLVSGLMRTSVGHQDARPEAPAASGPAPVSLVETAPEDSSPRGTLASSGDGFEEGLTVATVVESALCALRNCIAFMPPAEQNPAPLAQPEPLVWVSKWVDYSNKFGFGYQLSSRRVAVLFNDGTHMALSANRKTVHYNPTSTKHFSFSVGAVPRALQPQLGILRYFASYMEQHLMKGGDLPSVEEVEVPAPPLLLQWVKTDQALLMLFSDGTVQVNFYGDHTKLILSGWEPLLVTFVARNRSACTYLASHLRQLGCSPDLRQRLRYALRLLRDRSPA
Sequence of UniProt Q15418 (whole entry, looked up): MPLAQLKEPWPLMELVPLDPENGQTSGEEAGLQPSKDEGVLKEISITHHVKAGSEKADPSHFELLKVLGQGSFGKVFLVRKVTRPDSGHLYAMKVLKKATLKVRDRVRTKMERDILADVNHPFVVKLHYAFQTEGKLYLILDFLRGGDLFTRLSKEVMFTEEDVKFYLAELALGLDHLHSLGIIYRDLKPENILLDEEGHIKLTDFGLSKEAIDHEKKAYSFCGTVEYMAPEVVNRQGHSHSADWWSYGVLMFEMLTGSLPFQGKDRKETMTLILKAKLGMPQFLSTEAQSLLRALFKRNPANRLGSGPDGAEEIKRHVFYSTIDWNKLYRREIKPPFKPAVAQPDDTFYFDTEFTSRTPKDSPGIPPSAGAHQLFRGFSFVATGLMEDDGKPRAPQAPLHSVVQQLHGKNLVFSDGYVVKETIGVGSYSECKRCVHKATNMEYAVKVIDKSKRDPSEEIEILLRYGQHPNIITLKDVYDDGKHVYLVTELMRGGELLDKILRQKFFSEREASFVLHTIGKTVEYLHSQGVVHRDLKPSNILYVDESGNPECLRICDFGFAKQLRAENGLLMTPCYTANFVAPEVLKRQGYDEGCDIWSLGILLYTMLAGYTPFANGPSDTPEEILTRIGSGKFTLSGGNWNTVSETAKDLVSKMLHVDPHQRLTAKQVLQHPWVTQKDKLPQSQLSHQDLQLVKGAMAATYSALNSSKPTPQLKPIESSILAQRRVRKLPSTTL
Sequence of UniProt Q14289 (whole entry, looked up): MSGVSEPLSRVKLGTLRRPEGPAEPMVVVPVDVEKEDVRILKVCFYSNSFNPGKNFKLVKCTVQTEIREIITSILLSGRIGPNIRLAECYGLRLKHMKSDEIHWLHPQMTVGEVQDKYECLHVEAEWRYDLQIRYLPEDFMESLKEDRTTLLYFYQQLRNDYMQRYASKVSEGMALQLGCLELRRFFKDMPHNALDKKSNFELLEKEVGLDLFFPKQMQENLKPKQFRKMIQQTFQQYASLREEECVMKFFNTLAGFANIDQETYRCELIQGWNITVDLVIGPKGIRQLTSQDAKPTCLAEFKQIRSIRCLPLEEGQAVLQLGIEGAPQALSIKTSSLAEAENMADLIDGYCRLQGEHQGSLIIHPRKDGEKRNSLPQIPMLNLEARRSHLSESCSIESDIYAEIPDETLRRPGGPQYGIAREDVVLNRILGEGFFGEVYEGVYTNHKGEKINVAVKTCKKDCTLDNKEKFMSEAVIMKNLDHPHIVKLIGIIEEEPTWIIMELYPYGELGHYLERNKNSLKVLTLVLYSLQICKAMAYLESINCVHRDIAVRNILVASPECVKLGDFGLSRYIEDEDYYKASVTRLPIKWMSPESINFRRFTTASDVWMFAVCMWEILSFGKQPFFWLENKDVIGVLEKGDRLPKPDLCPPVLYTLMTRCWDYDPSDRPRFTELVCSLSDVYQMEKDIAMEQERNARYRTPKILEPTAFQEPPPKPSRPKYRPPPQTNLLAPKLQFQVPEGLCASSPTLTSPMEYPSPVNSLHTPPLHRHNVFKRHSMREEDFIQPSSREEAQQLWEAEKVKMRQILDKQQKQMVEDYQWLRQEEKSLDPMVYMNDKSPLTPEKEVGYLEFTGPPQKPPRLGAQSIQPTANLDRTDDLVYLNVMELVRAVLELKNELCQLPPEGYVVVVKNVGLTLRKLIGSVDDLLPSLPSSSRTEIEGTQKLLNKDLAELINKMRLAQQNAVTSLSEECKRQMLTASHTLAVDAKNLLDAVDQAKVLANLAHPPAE
Sequence of UniProt P19784 (whole entry, looked up): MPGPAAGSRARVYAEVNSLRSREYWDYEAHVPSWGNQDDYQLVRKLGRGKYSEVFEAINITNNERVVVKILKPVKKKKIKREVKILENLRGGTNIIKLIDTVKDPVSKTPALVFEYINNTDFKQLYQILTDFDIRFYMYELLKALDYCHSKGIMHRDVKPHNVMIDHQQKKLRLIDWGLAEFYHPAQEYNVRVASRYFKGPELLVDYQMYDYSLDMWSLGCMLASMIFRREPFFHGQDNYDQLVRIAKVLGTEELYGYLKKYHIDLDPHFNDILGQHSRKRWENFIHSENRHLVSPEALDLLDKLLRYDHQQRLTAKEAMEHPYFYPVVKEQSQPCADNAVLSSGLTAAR

Block 1 — species: human; sample: microsomes or S9; tested at: 2 µM; time: 0.5 h
Structure (SMILES)	remaining compound [%]
COC(=O)CC1C(=O)NCCN1S(=O)(=O)c1ccc(F)c(Cl)c1 (stereo not drawn)	59.2
CCOc1cc(=O)n2c(c1C(=O)NC1CCN(Cc3ccccc3)CC1)CCCCC2	> 99
Cc1n[nH]c(O)c1C(c1ccc(F)cc1)c1c(C)n[nH]c1O	> 99.9
Cc1nc2c(cc1Br)nc1n2C(C)CC1 (stereo not drawn)	76.6
O=C(O)C[C@@H](Cc1cc(F)c(F)cc1F)NC(=O)Nc1ccc(I)cc1	66.7

Block 2 — method: phase 2a trial; species: idiopathic pulmonary fibrosis patients
Compound: CC(C)n1cnc(-c2ccc(F)cc2)c1-c1ncc(C(=O)Nc2ccc(N3CCN(C)CC3)cc2)[nH]1
dose	setting	patients with hypophosphataemia
30 mg once daily	grade 3 emergent event	0%
all arms pooled	grade 4 emergent event	0%
60 mg once daily	grade 4 emergent event	0%

Block 3 — method: competition with immobilised ligand; tested at: 1 µM
Compound: C[C@@H](c1cccc(C#N)c1)n1cc(Cl)cc(C(N)=O)c1=N
target	read-out	remaining binding
NUAK1 (Homo sapiens, UniProt O60285)	cell-free assay	89%
DAPK3 (Homo sapiens, UniProt O43293)	cell-free assay	100%
DYRK2 (Homo sapiens, UniProt Q92630)	cell-free assay	98%
ACVR2B (Homo sapiens, UniProt Q13705)	binding	100%
HIPK1 (Homo sapiens, UniProt Q86Z02)	cell-free assay	79%
PLK3 (Homo sapiens, UniProt Q9H4B4)	cell-free assay	89%
PRKD1 (Homo sapiens, UniProt Q15139)	cell-free assay	90%
Ribosomal protein S6 kinase alpha-1, C-terminal kinase domain (RPS6KA1, Homo sapiens, UniProt Q15418)	cell-free assay	100%
PTK2B (Homo sapiens, UniProt Q14289)	cell-free assay	87%
EGFR (Homo sapiens, UniProt P00533, G719C)	cell-free assay	100%
RET (Homo sapiens, UniProt P07949, V804M)	cell-free assay	89%
TAOK1 (Homo sapiens, UniProt Q7L7X3)	cell-free assay	89%
CSNK2A2 (Homo sapiens, UniProt P19784)	cell-free assay	100%
MYLK2 (Homo sapiens, UniProt Q9H1R3)	cell-free assay	100%

Block 4 — cell line: mouse MPNST tumor cells; method: high-content nuclear imaging; measured: cell number; tested at: 10 µM; time: 12 h; setting: mean of 2 replicates; reference: plate mean; reading: higher = more cells
Structure (SMILES)	nuclei count
C[C@@H](NCCCc1cccc(C(F)(F)F)c1)c1cccc2ccccc12	-5.79 z-score and -5.93 z-score
O=C(NO)c1ccc2[nH]c(=O)c(CCCc3ccccc3)nc2c1	1.06 z-score
CCCCN(CC)c1nc(C)nc2c1c(C)c(C)n2-c1c(C)cc(C)cc1C	1.58 z-score
COc1cc2ncnc(Nc3ccc(F)c(Cl)c3)c2cc1OCCCN1CCOCC1	0.311 z-score and -4.95 z-score and -3.19 z-score
N=C(N)c1ccc(OCCCCCOc2ccc(C(=N)N)cc2)cc1	-0.963 z-score and -2.01 z-score
OCCN1CCN(CC/C=C2/c3ccccc3Sc3ccc(C(F)(F)F)cc32)CC1	-6.26 z-score

Block 5 — read-out: probe labelling
Compound: COc1cc(C(=O)N2CCC(N3CCN(C)CC3)CC2)ccc1Nc1ncc2c(n1)N(C)c1ccccc1C(=O)N2C
target	assay	system	conditions	inhibition [%]
mouse FYN/SRC/YES	KiNativ ATP probe	mouse brain lysate	0.1 µM, activation loop site	4.5
ULK3 (mouse)	KiNativ, measured: EVVAIkCVAK peptide, LYS1 site	brain tissue lysate (mouse)	0.1 µM, with: ADP acyl-phosphate probe	0.8
SRPK1/SRPK2 (mouse)	inhibitor, KiNativ ActivX ATP probe	mouse brain lysate	1 µM	-32.1
RSK1 domain 2 (mouse)	inhibitor, KiNativ ActivX ADP probe	mouse brain lysate	0.1 µM, Lys1 site peptide	10.9

Other studies, line by line
Compound	species	sample	route	dose	time	measurement	value
COC(=O)c1cc(Cl)ccc1N(C)C(=O)c1ccn2ncc(-c3ccc(C(N)=O)cc3)c2c1	C57BL/6 IFN-γ knockout mouse, female	plasma	oral	10 mg/kg	1 h	plasma concentration	24 nM

Excerpt of the above (block 4):
Structure (SMILES)	nuclei count
O=C(NO)c1ccc2[nH]c(=O)c(CCCc3ccccc3)nc2c1	1.06 z-score
CCCCN(CC)c1nc(C)nc2c1c(C)c(C)n2-c1c(C)cc(C)cc1C	1.58 z-score
COc1cc2ncnc(Nc3ccc(F)c(Cl)c3)c2cc1OCCCN1CCOCC1	0.311 z-score and -4.95 z-score and -3.19 z-score
N=C(N)c1ccc(OCCCCCOc2ccc(C(=N)N)cc2)cc1	-0.963 z-score and -2.01 z-score
